Measurements of several laboratories.
A part holds a random share of what one study measured.
UniProt P06241, sequence (whole entry, looked up): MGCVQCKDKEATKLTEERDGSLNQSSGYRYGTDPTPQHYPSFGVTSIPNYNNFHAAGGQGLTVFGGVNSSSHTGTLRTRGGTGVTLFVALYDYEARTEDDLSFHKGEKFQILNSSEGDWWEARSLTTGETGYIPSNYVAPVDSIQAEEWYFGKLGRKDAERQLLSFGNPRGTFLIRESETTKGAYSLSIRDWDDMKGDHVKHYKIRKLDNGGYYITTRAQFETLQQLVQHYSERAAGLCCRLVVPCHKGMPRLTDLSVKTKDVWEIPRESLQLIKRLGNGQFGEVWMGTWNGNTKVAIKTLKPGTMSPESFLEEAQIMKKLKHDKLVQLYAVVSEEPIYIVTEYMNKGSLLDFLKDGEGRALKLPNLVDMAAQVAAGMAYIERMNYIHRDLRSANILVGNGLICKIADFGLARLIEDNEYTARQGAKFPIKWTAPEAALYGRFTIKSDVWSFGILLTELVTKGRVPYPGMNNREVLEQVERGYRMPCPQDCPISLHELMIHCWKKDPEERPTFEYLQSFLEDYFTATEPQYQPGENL
UniProt P06239, sequence (whole entry, looked up): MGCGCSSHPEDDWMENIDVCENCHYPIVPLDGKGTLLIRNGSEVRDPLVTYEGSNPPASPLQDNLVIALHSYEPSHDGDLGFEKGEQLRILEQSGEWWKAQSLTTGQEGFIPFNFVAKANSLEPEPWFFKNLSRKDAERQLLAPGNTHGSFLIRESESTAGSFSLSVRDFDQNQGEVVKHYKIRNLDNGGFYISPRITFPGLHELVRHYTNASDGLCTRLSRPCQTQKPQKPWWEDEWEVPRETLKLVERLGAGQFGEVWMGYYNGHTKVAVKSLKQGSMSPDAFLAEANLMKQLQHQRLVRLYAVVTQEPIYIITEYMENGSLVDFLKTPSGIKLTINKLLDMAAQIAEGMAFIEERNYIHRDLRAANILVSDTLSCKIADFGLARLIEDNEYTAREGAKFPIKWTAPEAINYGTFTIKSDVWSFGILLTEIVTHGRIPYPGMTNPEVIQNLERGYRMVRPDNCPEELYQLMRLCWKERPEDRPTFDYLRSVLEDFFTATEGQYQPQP
UniProt Q9Y243, sequence (whole entry, looked up): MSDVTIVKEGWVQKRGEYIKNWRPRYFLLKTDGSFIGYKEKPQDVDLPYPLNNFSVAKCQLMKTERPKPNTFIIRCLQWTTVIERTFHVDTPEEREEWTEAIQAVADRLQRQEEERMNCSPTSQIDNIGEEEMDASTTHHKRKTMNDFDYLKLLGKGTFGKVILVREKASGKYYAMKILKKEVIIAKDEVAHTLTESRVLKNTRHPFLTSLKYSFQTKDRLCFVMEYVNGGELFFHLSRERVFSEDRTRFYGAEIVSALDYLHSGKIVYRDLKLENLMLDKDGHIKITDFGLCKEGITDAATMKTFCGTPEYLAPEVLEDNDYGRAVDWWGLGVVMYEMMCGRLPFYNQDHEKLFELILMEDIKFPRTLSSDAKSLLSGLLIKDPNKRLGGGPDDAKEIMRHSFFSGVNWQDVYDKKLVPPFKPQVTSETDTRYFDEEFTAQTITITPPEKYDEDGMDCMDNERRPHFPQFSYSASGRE
UniProt Q8WTQ7, sequence (whole entry, looked up): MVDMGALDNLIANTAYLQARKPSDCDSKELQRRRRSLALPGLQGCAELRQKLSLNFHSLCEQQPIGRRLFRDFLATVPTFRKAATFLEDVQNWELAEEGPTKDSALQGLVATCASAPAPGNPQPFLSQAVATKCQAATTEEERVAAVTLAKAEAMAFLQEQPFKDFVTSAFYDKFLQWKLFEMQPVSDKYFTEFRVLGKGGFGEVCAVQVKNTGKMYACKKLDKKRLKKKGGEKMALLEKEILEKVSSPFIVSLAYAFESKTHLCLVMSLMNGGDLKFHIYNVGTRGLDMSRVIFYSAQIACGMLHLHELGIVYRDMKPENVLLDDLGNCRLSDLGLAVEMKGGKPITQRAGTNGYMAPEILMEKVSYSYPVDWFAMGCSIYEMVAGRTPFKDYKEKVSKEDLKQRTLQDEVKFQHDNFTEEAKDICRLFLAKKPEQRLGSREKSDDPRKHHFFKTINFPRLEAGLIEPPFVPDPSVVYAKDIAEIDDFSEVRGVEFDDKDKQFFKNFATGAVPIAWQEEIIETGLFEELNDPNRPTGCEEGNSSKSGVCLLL
UniProt Q9NQU5, sequence (whole entry, looked up): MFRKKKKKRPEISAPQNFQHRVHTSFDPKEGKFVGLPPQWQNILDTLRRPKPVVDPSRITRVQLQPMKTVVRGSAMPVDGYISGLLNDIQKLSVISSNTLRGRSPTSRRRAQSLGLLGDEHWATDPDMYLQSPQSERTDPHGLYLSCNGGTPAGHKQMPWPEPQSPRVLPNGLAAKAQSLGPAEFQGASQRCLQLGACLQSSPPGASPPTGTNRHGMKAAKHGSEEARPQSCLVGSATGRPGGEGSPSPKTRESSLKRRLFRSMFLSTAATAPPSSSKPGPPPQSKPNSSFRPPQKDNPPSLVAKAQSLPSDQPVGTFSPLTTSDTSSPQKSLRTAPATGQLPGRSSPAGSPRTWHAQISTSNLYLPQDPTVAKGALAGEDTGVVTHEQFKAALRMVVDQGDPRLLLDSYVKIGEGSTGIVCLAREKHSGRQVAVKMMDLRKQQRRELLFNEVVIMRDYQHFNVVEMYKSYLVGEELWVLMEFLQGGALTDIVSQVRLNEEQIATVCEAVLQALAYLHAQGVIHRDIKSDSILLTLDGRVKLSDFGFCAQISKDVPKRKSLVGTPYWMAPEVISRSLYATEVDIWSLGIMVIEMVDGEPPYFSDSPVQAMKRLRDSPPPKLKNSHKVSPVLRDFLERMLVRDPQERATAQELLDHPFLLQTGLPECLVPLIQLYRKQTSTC
UniProt P23458, sequence (whole entry, looked up): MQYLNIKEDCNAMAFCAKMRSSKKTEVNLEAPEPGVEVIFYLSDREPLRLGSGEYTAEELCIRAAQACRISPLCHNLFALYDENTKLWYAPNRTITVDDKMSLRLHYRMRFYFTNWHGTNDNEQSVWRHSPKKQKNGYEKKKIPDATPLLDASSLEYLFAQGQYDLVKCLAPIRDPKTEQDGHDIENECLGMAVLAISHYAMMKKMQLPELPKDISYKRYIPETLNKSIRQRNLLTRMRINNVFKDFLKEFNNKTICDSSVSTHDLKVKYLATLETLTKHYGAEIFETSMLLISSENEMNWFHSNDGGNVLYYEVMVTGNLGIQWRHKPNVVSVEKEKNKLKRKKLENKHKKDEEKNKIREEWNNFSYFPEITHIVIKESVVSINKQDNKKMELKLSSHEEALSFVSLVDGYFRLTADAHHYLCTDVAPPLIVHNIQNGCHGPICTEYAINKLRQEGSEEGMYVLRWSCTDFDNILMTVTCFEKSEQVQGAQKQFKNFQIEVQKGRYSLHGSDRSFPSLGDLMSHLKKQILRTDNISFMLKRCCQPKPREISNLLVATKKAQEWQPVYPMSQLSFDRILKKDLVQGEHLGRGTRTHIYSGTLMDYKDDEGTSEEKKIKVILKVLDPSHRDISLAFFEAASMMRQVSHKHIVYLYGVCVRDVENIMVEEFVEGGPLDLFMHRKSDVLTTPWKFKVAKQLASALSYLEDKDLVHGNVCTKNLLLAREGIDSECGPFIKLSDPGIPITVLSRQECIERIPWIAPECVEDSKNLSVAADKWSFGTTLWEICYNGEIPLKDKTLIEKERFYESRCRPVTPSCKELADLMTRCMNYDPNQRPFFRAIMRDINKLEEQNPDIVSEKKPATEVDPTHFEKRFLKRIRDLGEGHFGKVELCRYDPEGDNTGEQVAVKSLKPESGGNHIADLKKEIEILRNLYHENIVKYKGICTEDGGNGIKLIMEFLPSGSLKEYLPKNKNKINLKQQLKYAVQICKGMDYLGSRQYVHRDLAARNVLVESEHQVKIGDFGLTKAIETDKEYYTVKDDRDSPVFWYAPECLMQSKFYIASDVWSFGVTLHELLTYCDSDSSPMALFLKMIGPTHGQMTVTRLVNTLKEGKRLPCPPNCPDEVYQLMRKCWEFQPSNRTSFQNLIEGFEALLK

Study 1
Target: RING finger protein unkempt homolog, zinc fingers 1-6, GST-SBP tag (UNK, Homo sapiens, UniProt Q9C0B0, residues 30-357)
Method: RNA Bind-n-Seq
Molecule type: RNA
Medium: in vitro
Concentration: not given
Setting: RNA with constant flanks, human and mouse sites, ends assumed
Reference: input RNA pool
Reading: higher = stronger binding
Target sequence (chain): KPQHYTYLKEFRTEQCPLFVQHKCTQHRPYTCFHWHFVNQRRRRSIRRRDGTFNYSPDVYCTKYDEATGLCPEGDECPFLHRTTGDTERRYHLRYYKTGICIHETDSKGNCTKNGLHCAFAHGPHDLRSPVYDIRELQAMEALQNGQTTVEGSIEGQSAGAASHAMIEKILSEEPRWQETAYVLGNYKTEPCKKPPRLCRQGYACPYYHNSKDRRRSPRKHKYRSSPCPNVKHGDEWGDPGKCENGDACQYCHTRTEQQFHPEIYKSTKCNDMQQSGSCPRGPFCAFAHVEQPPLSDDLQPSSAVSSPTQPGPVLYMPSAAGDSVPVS
| Oligonucleotide | bound/input enrichment [ratio] |
| --- | --- |
| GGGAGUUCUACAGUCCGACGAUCUUUCGGAACUAUAUCAUGGACUUCCAAGUUGGGAAGGAGUUUGAGGAAGAUCUGACAGGCAUAGACGACCGCAAGUGCAUGACCACUGUGAGCUGGGAUGGUGACAAACUCCAGUGUGUGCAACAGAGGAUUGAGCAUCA | 0.233 |
| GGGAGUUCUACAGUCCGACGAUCCAUGUGACCAAAUCCAUUUCAUUAUUGAAUGGCUUGAUGGAUUUCCUUUACUCUGAUUCAUACCAAAGCUGUCCUUCUCAACCAAAGCAAGAAAGGAUCCUGCAUGAGUCAAUCCCAGAACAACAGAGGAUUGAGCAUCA | 0.156 |
| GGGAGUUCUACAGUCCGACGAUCGAAAUUAAAGAGCCUGAAAGUUUUAAUGCAGCUGCUCAGGAAGCAGAAGCUCCUUAUAUAUCCAUUGCAUGUGAUUUAAUUAAAGAAACAAAGCUCUCCACUGAGCCAAGUCCAGAGUUCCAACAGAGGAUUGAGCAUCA | 0.338 |
| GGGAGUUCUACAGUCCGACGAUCUCUGAUGGUGACCAUCAAGUUCCAGCUCCUUCAGGAAACAAAGCAGCUCUUUUGGAUCAAAUUAGAGAGGGUGCUCAGCUGAAAAAAGUGGAACAGAAUAGCCGGCCCGUGUCCUGCUCACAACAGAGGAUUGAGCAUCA | 0.42 |
| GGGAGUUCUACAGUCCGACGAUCUUGGCUGCAGUGCUGUUGUCAGGCUUGACAACCUCAUGUCCCACCUCAGUGACUGUGAGCACAACCCGAAGCGGCCUGUGACCUGUGAGCAGGGCUGUGGCCUGGAGAUGCCCAAAGAUGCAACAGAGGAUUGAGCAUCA | 0.0558 |
| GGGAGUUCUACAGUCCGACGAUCGCAGAGGGACAGAGAAGAGGAUCCCAGGGUGACAUUAAGCAGCAAAAUGGCCCACCAAGAAAACACAUUGUGGAGCGCAACACGGAGUUUUAUCACAUACCCACUCACAGUGAUGCCAGCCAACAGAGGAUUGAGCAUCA | 0.401 |
| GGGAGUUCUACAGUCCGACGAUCAGGUGGUAUGGAAGCCUGCAUGCGUGUUCAACUCUGUUCCUCCUCCCUCCUCCUCGGCCUCCCUCCUCCCCUCCUUCGCUCGCUCAACCUCUUUUGUUCAGUACGUGUAACUUGAAGCUACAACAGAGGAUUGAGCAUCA | 0.682 |
| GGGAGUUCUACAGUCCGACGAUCGACAUUGCAGAAAAUGCUUUGAAAAAUUCCUCAGAAACAGAAAUACCUACUGUCAGCGUUUUAGCUGAUGAAGAAUUCCUUCCCUUCAAAGAAAAUACAUUUGACCUGGUGGUUAGCAGUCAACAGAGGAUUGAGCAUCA | 0.336 |

Study 2
SMILES: CN([C@@H]1CCc2c(CC(=O)O)c3ccccc3n2C1)S(=O)(=O)c1ccc(F)cc1
Read-out: cell-free assay
Method: competition with immobilised ligand
Concentration: 1 µM
| target | remaining binding |
| --- | --- |
| RIOK2 (Homo sapiens, UniProt Q9BVS4) | 90% |
| NTRK1 (Homo sapiens, UniProt P04629) | 100% |
| PIK3CA (Homo sapiens, UniProt P42336, C420R) | 100% |
| FGFR3 (Homo sapiens, UniProt P22607, G697C) | 100% |
| COQ8B (Homo sapiens, UniProt Q96D53) | 100% |
| ROS1 (Homo sapiens, UniProt P08922) | 100% |
| MAP3K13 (Homo sapiens, UniProt O43283) | 100% |
| IRAK1 (Homo sapiens, UniProt P51617) | 78% |
| LCK (Homo sapiens, UniProt P06239) | 100% |
| TLK1 (Homo sapiens, UniProt Q9UKI8) | 100% |
| OXSR1 (Homo sapiens, UniProt O95747) | 100% |
| PAK6 (Homo sapiens, UniProt Q9NQU5) | 100% |
| FYN (Homo sapiens, UniProt P06241) | 77% |
| GRK7 (Homo sapiens, UniProt Q8WTQ7) | 93% |
| EPHA6 (Homo sapiens, UniProt Q9UF33) | 91% |
| Ribosomal protein S6 kinase alpha-5, N-terminal kinase domain (RPS6KA5, Homo sapiens, UniProt O75582) | 95% |
| Tyrosine-protein kinase JAK1, JH1 (JAK1, Homo sapiens, UniProt P23458) | 100% |
| AKT3 (Homo sapiens, UniProt Q9Y243) | 100% |
| CAMKK1 (Homo sapiens, UniProt Q8N5S9) | 91% |
| NEK1 (Homo sapiens, UniProt Q96PY6) | 100% |

Study 3
Target: Ephrin type-A receptor 7 (EPHA7, Homo sapiens, UniProt Q15375)
UniProt Q15375, sequence (whole entry, looked up): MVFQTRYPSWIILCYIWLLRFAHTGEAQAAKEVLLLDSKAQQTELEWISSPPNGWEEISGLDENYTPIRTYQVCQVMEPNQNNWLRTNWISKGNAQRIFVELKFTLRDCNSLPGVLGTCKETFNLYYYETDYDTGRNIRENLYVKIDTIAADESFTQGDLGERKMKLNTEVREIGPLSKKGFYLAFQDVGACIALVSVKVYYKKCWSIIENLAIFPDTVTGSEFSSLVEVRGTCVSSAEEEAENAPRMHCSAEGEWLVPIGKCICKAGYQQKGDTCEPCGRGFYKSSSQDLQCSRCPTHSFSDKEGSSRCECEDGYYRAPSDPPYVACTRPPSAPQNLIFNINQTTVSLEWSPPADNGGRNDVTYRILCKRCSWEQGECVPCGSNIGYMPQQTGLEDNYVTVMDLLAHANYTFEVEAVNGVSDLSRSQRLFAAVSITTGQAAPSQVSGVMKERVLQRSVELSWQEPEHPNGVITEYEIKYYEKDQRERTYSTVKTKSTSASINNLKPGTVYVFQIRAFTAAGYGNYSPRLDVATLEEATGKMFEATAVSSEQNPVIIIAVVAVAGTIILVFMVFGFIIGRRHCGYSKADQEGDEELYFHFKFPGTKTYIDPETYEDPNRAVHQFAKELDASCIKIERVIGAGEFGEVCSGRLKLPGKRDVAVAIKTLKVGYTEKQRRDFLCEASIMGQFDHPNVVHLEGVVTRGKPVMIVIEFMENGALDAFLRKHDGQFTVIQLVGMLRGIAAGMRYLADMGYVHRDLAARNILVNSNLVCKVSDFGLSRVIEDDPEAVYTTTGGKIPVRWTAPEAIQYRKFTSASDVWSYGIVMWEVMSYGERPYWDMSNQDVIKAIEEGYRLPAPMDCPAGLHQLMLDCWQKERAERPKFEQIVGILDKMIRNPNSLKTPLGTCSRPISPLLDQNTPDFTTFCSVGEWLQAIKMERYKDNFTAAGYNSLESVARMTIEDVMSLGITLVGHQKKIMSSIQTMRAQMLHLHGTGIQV
Read-out: enzyme activity
Action: inhibitor
Concentration: 0.5 µM
Reference: control
| SMILES | remaining activity [%] |
| --- | --- |
| O=c1c2ccccc2[nH]c(=S)n1CCN1CCC(=C(c2ccc(F)cc2)c2ccc(F)cc2)CC1 | 96.9 |
| CCOC(=O)c1c(C)[nH]c(/C=C2\C(=O)Nc3ccccc32)c1C | 85.3 |
| CN(C)c1ccc(C=C2C(=O)Nc3ccccc32)cc1 | 99.1 |
| N#CC(C#N)=C(N)/C(C#N)=C/c1ccc(O)cc1 | 90.5 |
| COc1ccc(OC)c2c(=S)c3ccccc3[nH]c12 | 89.7 |
| Cc1nc(-c2ccccc2)c(-c2ccncc2)o1 | 91.5 |
| O=C1NC(=O)C(c2cn(CCCO)c3ncccc23)=C1c1cnccn1 | 105 |
| COc1cc2ncnc(Nc3ccc(F)c(Cl)c3)c2cc1OCCCN1CCOCC1 | 74.3 |
| Cn1sc(=O)n(Cc2ccccc2)c1=O | 105 |
| Nc1[nH]nc2nc3ccccc3nc12 | 95.3 |
| COc1cc2nccc(Oc3ccc(NC(=S)NC(=O)c4ccccc4C)cc3)c2cc1OC | 90.4 |
| O=C1NC(=O)C(c2cn(CCCn3ccnc3)c3ccccc23)=C1Nc1ccccc1 | 89.5 |
| OCC(O)CCON=C1C(c2c(O)[nH]c3ccccc23)=Nc2ccccc21 (stereo not shown) | 71.4 |

Study 4
Target: RNA binding protein fox-1 homolog 2, RRM domain, GST-SBP tag (RBFOX2, Homo sapiens, UniProt O43251-10, residues 100-194)
Method: RNA Bind-n-Seq
Molecule type: RNA
Medium: in vitro
Concentration: 365 nM
Setting: natural RNA segment, single round, ends assumed
Reference: no-protein control
Reading: higher = stronger binding
Target sequence (chain): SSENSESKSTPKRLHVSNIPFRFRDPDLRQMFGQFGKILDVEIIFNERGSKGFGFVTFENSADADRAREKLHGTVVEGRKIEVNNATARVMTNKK
| Oligonucleotide | RBNS enrichment (R) |
| --- | --- |
| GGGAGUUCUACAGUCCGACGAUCUUUGUUCAUCUGGUCAUCGUGUCCAAAUUUCAGUCAUGUUUGUAGCAAGAUUUUGGAAGCAUUCAUAUUUCCUUUUUAAAAUGUAUUCCUUUGUGUUCAACAGUUAAUCAUGGAAUUCUCGGGUGCCAA | 0.487 |
| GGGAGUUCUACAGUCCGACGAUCCUCUACACACCAACCCUUUCUUUCCUAUCUAGCUUUCUAGUAGGGAGCGGGAGGGGGGAGGGGAAGGGUAACCCACUGCUUCAUCUCAUCGGGUAUGCAUGUCCGGUAGGUGGAAUUCUCGGGUGCCAA | 6.09 |
| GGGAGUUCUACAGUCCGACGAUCCGAACUGCCUGUUCUCUAAACCUCAAGGAGAAAAACUGGAGUUAAUGGGUAAUAAGGUGCAAAAUAAAGGGGUAAGGGGGGAGUUUUCUAUCUGUCCUGUUCUCUGUUAUUGGAAUUCUCGGGUGCCAA | 0.294 |
| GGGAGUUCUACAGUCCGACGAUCACCUCAGCCUCCUGUCCCCGUCCUGGUCUUCCCUACACAGUCUGGAGAGGGCUCUGAAAGGUCCACAGAGUUUGACAGACACGAAAGCAACCCAUUGCCCCGUUGACCUGUGGAAUUCUCGGGUGCCAA | 0.383 |
| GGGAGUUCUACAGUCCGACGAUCGCUAGGCUAAGUCAAGAUCAACAUUCCAGGGUUGGUAAUGUUGGAUGAUGAAACAUUCAUUUUUACCUUGUGGAUGCUAGUGCUGUAGAGUUCACUGUUGUACACAGUCUUGGAAUUCUCGGGUGCCAA | 0.336 |
| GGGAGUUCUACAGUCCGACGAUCGGGUUGCCUUGGCAGCAGAGGCUCCUCUGAUGGCUGACAUCAGUCACUGCGUCUGGGCCUGAGACGUGCAUGGAGGGCUGUAAAGCCACGGAUUCCCCUCGCUGGAGAGGUGGAAUUCUCGGGUGCCAA | 8.24 |
| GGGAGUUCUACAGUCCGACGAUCCAGAUUGUCUGUGACACUCAAGCCCCUCUCAUUUUUAUCUGUCUACCUCCAUUCUGAAGAGGGAGGUUUUGGUGUCCCUGGUCCUCUGGGAAUAGAAGAUCCAUUUGUCUUGGAAUUCUCGGGUGCCAA | 0.374 |
| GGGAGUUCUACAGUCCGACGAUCUCAUGCUUCUACAAGGUGAAGUGUGUUUGGGGAAACUGAGCUCUAACAAAAGCCGCGACAGCCACCAGGCAGGCUUUUCCUUAUACAUGACAGAAGUUCGUAUUACGCCUUGGAAUUCUCGGGUGCCAA | 0.299 |

For quick reference, copied from above (study 2):
| target | remaining binding |
| --- | --- |
| IRAK1 (Homo sapiens, UniProt P51617) | 78% |
| LCK (Homo sapiens, UniProt P06239) | 100% |
| TLK1 (Homo sapiens, UniProt Q9UKI8) | 100% |
| OXSR1 (Homo sapiens, UniProt O95747) | 100% |
| PAK6 (Homo sapiens, UniProt Q9NQU5) | 100% |
| FYN (Homo sapiens, UniProt P06241) | 77% |
